Assay results gathered from unrelated publications.
Lines come from different studies, so protocols differ. Several values in a cell are separate wells, animals, samples, runs or records. Numbers after ± are the reported error. Non-standard residues stand in square brackets, D forms with d. Square brackets hold non-standard residues; d marks the D form. Primed or numbered codes have the meaning given here. Ends that are not written are not given here. No end group written: not given here. * marks the point of attachment.
B1: UGT1A9 (Homo sapiens, UniProt O60656); chain GKLLVVPMDGSHWFTMRSVVEKLILRGHEVVVVMPEVSWQLGRSLNCTVKTYSTSYTLEDLDREFKAFAHAQWKAQVRSIYSLLMGSYNDIFDLFFSNCRSLFKDKKLVEYLKESSFDAVFLDPFDNCGLIVAKYFSLPSVVFARGILCHYLEEGAQCPAPLSYVPRILLGFSDAMTFKERVRNHIMHLEEHLLCHRFFKNALEIASEILQTPVTEYDLYSHTSIWLLRTDFVLDYPKPVMPNMIFIGGINCHQGKPLPMEFEAYINASGEHGIVVFSLGSMVSEIPEKKAMAIADALGKIPQTVLWRYTGTRPSNLANNTILVKWLPQNDLLGHPMTRAFITHAGSHGVYESICNGVPMVMMPLFGDQMDNAKRMETKGAGVTLNVLEMTSEDLENALKAVINDKSYKENIMRLSSLHKDRPVEPLDLAVFWVEFVMRHKGAPHLRPAAHDLTWYQYHSLDVIGFLLAVVLTVAFITFKCCAYGYRKCLGKKGRVKKAHKSKTH
B2: CLASP1/GFP 805-1471 (Homo sapiens); chain ADALKKPVRRRYEPYGMYSDDDANSDASSVCSERSYGSRNGGIPHYLRQTEDVAEVLNHCASSNWSERKEGLLGLQNLLKSQRTLSRVELKRLCEIFTRMFADPHSKRVFSMFLETLVDFIIIHKDDLQDWLFVLLTQLLKKMGADLLGSVQAKVQKALDVTRDSFPFDQQFNILMRFIVDQTQTPNLKVKVAILKYIESLARQMDPTDFVNSSETRLAVSRIITWTTEPKSSDVRKAAQIVLISLFELNTPEFTMLLGALPKTFQDGATKLLHNHLKNSSNTSVGSPSNTIGRTPSRHTSSRTSPLTSPTNCSHGGLSPSRLWGWSADGLAKHPPPFSQPNSIPTAPSHKALRRSYSPSMLDYDTENLNSEEIYSSLRGVTEAIEKFSFRSQEDLNEPIKRDGKKECDIVSRDGGAASPATEGRGGSEVEGGRTALDNKTSLLNTQPPRAFPGPRARDYNPYPYSDAINTYDKTALKEAVFDDDMEQLRDVPIDHSDLVADLLKELSNHNERVEERKGALLELLKITREDSLGVWEEHFKTILLLLLETLGDKDHSIRALALRVLREILRNQPARFKNYAELTIMKTLEAHKDSHKEVVRAAEEAASTLASSIHPEQCIKVLCPIIQTADYPINLAAIKMQTKVVERIAKESLLQLLVDIIPGLLQ
B3: Fras1 CSPG domains (Mus musculus); chain TPSLHVNGSLTLGIGSMKPLDFSLLNIQHQDGRVEDLLFHVVSTPTNGQLLLSRNGKEVQLEKAGHFSWKDVNEKKVRFVHSKEKLRKGYFSLKISDQQFFSEPQLINIQAFSTQAPYVLRNEVLHVSKGERATITTQLLDIRDDDNPQDVVVNVLDPPLHGQLLQMPPAPAASIYQFHLDELSRGLLLYAHDGSDSTSDIIVFQANDGHSFQNILFHVKNIPKNDRALRLVTNSMVWVPEGGMLKITNRILKAQAPGVRADDIIYKITHSRPQFGEVVLLMNLPADSPAGPAEEGHHLPDGRMATPISTFTQQDIDDGVVWYRHLGAPTQSDSFRFQVSSATSAQEHLESHMFNIAILPQAPEAPKLSLGTSLHMTAREDGLSVIQPQSLSFVKAESPSGKIIYNITVPLHPNQGIIEHRDRPHSPIQYFTQEDINQGQIMYRPPVAPPHLQEIMAFSFAGLPESVKFYFTVSDGQHTSPEMALTIHLLHSDLQPPAFQVKAPLLEVSPGGRTSLGLQLLVRDAQVVPEELFFQLQKSPQHGMLVKYTAKSSVTMAAGDTFTYDEVERNVLQYVHDGSSAWEDSLEISVTDGLTVTTSEVKVEVSPSENRGPRLAPGSSLSMTVASQHTAIITRSHLAYVDDSSSDPEIWIRLSSLPLYGVLFRSSGPDMDELSGDSNFTMEDINKKNIRYSAVFETDGHSVTDGFHFSVSDMDGNHVDNQVFTITVTPAENPPHIIAFADLITVDEGGRAPLSLHHFFATEDQDNLQDDAVIKLSALPKYGCIENTGTGDRFGPGANSELEASFPIQDVLENYIYYFQSVHESIEPTHDVFSFYVSDGSGRSEIHSINITIERKNDEPPRMTLRPLGVRLSSGVAISNSSLSLQDLDTPDNELIFVLMKKPDHGHLLRRSTASDPLENGTVLDQGSSFTYQDVLAGLVGYLPGDIYMAVDEFRFSLTDGLHVDTGRMEIYIELPSTNIPHLAINRGLQLSAGSVARITEQHLKATDTDSEAGQVVYIMKEDPGAGRLLMAKADNLEQISVRGPIRSFTQADVSQGQIEYSHGPGEPGGSFAFKFDVVDGEGNKLADQSFSIGVLEDKSPPVVITNRGLVLDENSVEKITTAQLSATDQDSKPTELIYRITTQPQLGHLEHVASPGIQISSFTQADLASRNVQYVRSSGTGKQSDAFSFVLSDGLHEVTQTFPITIHPVDDARPLVQNRGMRVQEGVRKTITEFELKAVDVDTEAESITFTIVQPPRHGTIERTARGQRFHQTSSFTMEDIYQNRVSYSHDGSNSLKDRFTFTVSDGTNPFFIIEEGGEEIMTAAPQQFHVDILPVDDGTPRIVTNLGLQWLEYMDGKATNLITKKELLTVDPDTEDSQLIYEVTTGPMHGYLENKLQPGRAAATFTQEHVNLGLIRYVLYEEKIQKVMDSFQFLVKDSKPNV
B4: DBI (Mus musculus, UniProt P31786); Cy5 label; sequence looked up; chain MSQAEFDKAAEEVKRLKTQPTDEEMLFIYSHFKQATVGDVNTDRPGLLDLKGKAKWDSWNKLKGTSKESAMKTYVEKVDELKKKYGI
B5: POL30 (Saccharomyces cerevisiae, UniProt P15873); Cy3 label; sequence looked up; chain MLEAKFEEASLFKRIIDGFKDCVQLVNFQCKEDGIIAQAVDDSRVLLVSLEIGVEAFQEYRCDHPVTLGMDLTSLSKILRCGNNTDTLTLIADNTPDSIILLFEDTKKDRIAEYSLKLMDIDADFLKIEELQYDSTLSLPSSEFSKIVRDLSQLSDSINIMITKETIKFVADGDIGSGSVIIKPFVDMEHPETSIKLEMDQPVDLTFGAKYLLDIIKGSSLSDRVGIRLSSEAPALFQFDLKSGFLQFFLAPKFNDEE
B6: adrenodoxin (Homo sapiens, UniProt P10109); RED dye on amines; sequence looked up; chain SSSEDKITVHFINRDGETLTTKGKVGDSLLDVVVENNLDIDGFGACEGTLACSTCHLIFEDHIYEKLDAITDEENDMLDLAYGLTDRSRLGCQICLTKSMDNMTVRVPETVADARQSIDVGKTS
Sequence of UniProt P06400 (whole entry, unmodified, looked up): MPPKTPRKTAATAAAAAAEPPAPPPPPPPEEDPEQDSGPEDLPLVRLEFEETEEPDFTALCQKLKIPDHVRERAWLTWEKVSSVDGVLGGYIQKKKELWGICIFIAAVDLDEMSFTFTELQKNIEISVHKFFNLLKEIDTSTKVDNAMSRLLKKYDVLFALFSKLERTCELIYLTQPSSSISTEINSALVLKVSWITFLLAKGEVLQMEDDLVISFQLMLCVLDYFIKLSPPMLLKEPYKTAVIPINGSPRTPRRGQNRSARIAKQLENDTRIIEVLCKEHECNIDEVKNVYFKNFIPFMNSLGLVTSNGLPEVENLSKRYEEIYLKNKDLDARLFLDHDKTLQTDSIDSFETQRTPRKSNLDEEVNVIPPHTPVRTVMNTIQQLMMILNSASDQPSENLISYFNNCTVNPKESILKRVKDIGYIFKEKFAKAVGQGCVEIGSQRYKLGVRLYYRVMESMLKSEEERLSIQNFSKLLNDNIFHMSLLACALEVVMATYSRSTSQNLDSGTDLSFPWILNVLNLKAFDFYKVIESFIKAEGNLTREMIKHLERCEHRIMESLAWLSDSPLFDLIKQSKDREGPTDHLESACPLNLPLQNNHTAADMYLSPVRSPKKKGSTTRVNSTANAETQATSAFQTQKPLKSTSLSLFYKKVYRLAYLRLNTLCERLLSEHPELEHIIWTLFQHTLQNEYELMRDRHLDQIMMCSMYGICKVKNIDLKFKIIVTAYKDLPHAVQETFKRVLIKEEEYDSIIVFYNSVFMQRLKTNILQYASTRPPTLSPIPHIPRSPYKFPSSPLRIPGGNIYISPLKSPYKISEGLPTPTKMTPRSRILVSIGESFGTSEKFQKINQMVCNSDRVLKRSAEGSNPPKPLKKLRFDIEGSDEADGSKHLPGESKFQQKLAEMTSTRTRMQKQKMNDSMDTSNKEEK
Sequence of UniProt Q92547 (whole entry, unmodified, looked up): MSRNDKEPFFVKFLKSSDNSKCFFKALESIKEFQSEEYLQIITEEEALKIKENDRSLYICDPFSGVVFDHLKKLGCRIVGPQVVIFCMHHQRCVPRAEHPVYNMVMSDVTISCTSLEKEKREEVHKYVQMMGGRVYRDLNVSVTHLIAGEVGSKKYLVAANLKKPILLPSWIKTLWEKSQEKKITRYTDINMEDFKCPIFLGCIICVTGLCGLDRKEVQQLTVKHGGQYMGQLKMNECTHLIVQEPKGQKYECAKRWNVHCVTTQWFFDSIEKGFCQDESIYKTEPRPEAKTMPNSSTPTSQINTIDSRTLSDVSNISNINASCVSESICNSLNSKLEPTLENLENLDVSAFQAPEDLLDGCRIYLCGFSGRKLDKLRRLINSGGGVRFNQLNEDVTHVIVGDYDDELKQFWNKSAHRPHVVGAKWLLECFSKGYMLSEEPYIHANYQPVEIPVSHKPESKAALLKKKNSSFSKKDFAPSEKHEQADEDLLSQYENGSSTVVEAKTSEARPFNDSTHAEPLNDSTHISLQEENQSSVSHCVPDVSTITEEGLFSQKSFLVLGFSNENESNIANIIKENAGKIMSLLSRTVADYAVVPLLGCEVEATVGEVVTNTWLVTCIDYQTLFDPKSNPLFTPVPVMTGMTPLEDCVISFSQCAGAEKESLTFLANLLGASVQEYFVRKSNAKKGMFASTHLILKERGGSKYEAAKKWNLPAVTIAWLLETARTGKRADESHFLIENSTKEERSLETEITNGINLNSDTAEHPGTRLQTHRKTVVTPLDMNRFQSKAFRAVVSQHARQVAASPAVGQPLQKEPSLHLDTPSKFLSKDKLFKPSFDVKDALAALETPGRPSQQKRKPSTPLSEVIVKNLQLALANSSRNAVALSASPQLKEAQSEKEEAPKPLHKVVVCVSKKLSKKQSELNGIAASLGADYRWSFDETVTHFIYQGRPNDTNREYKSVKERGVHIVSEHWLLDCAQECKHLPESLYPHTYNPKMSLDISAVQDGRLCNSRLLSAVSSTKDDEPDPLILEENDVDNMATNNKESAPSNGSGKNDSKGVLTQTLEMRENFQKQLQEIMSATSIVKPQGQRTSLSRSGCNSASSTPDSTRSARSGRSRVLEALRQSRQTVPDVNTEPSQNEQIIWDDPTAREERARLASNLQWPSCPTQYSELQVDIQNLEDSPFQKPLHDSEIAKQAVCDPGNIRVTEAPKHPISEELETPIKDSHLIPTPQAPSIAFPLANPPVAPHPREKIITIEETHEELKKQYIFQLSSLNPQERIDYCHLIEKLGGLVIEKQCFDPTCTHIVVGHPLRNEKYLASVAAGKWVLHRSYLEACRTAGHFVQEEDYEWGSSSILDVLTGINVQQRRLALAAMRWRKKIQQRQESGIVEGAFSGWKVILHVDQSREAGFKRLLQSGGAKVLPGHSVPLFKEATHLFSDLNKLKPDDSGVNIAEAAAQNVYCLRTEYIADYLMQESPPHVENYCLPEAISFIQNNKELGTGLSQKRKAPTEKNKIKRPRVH
Sequence of UniProt P32198 (whole entry, unmodified, looked up): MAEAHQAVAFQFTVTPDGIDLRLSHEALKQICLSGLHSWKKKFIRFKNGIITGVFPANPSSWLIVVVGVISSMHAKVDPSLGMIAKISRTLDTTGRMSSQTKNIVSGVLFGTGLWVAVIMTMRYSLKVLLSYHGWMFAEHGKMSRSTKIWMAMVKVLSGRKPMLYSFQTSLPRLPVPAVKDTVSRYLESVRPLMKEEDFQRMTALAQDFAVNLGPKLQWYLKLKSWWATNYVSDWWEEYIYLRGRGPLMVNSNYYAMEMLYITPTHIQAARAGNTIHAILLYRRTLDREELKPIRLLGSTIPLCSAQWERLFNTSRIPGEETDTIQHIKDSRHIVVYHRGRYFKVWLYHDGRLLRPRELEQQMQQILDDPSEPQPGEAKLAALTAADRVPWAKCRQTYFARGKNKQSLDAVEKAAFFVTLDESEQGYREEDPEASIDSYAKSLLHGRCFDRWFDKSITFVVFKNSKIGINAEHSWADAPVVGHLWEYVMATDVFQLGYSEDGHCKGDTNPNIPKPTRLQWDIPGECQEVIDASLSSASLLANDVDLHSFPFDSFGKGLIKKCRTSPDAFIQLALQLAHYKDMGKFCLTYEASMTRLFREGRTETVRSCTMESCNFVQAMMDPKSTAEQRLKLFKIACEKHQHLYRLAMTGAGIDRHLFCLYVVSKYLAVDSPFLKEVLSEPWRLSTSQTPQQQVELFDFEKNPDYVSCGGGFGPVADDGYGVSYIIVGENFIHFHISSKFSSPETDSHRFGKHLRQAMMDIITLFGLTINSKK
Sequence of UniProt P54760 (whole entry, looked up): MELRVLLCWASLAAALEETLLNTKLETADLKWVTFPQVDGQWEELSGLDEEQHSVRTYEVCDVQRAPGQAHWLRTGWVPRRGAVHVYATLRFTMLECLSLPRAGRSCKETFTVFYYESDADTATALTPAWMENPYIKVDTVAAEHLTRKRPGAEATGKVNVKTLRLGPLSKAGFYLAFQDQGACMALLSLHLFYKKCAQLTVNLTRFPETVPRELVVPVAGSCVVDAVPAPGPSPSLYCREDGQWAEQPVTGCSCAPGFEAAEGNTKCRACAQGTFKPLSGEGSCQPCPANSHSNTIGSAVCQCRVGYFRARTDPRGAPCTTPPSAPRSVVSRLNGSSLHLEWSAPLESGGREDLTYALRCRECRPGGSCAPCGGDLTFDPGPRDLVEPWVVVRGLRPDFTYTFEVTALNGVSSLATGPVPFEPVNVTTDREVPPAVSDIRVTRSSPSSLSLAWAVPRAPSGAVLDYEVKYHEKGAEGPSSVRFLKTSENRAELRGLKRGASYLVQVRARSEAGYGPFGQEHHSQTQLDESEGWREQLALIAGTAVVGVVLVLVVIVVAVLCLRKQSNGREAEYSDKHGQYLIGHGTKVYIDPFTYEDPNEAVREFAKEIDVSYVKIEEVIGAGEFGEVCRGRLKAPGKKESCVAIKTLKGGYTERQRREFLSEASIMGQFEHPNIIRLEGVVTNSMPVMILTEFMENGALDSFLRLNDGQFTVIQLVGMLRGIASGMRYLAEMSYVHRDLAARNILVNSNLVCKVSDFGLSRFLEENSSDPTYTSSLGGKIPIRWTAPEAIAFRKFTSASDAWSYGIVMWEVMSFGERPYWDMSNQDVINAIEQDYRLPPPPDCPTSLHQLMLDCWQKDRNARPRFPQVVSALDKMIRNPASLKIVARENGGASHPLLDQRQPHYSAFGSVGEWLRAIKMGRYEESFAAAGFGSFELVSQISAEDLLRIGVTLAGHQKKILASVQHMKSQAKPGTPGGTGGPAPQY
Sequence of UniProt P29350 (whole entry, unmodified, looked up): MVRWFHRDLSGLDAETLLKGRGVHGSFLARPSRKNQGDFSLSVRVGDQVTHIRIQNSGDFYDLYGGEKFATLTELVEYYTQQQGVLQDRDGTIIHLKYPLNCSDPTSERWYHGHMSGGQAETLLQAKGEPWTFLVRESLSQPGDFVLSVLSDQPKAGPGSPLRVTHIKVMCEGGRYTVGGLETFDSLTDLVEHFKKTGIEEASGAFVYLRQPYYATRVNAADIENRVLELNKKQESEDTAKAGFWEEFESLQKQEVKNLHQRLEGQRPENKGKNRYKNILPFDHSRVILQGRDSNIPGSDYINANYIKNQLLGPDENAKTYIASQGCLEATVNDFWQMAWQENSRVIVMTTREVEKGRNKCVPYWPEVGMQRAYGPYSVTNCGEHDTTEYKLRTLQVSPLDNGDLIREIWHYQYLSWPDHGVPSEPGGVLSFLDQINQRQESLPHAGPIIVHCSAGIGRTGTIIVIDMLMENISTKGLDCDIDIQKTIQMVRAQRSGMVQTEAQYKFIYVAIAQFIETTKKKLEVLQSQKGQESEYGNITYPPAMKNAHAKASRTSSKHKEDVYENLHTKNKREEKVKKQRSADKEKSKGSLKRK

`B1 (UGT1A9)` has a Vmax of 0.0021 µmol/min/mg (O=c1c(O)c(-c2ccccc2)oc2ccccc12; steady-state kinetics; pH 7.4, 37 °C).
The Kd of `{FITC}-GFID[pS]D[pT]DVEEE-NH2 (MDC1 phosphopeptide; FITC N-terminus, pS5, pT7, C-terminal amide; FITC = O=C1OC2(c3ccc(O)cc3Oc3cc(O)ccc32)c2ccc(NC(=S)*)cc21; pS = N[C@@H](COP(=O)(O)O)C(=O)O; pT = C[C@@H](OP(=O)(O)O)[C@H](N)C(=O)O)` is reported as 32000 ± 3000 nM (TOPBP1 641-746 S654A (Homo sapiens, UniProt Q92547); fluorescence polarisation; peptide; NaCl 150 mM).
With `GSFGPDLRAGD (peptide)` the Kd was 146000 ± 4000 nM (PPIC fragment (Homo sapiens); NMR titration; peptide; apparent, cis and trans isomers).
`LDYHFGLEEGEGIRDLFD (E2F1 409-426 (Homo sapiens, UniProt Q01094); sequence looked up)` gave a Kd of 750 nM (RB1 55-787 del245-267/del582-642, phosphorylated by Cdk2-CycA (UniProt P06400); ITC; pH 8.0, NaCl 100 mM, with: LxCxE peptide 100 µM).
With `ATRIP fragment T12A` the Kd was 17000 nM (RPA1 1-120 (Homo sapiens, UniProt P27694); competition with ATRIP probe, fluorescence polarisation; pH 7.5, NaCl 75 mM).
The Kd of `Nrxn1 alpha, lacks splice site 4 insert (sequence not shown)` is reported as 43.7 nM (Clstn3 ectodomain Fc fusion; cell-based binding assay; COS; apparent).
The Kd of `B2 (CLASP1/GFP 805-1471)` is reported as greater than 10000 nM (PRC1 (Homo sapiens, UniProt O43663); BLI).
`B3 (Fras1 CSPG domains)` has a Kd of 75 nM (Vwa2 (Mus musculus, UniProt Q70UZ7); SPR; pH 7.4, 25 °C, NaCl 0.15 M, Langmuir fit).
With `B4 (DBI)` the Kd was 53 nM (CPT1A 381-469 W452A, Cy3 label (Rattus norvegicus, UniProt P32198); FRET; 24 °C).
With `NRP1 (Homo sapiens, UniProt O14786)` the Kd was 2200 ± 200 nM (SEMA3F 740-779, N-terminal FITC (Homo sapiens); fluorescence polarisation; 1.8 µM, pH 7.5, 23 °C, NaCl 100 mM, single site model).
For `GVVEVDAAV[pT]PEERHLSKMQQNGY (APP 659-682 (UniProt P05067-4); pT668; pT = C[C@@H](OP(=O)(O)O)[C@H](N)C(=O)O; sequence looked up)`, the Kd was 22400 nM (PIN1 WW domain 1-50 (Homo sapiens, UniProt Q13526); NMR titration; peptide; pH 6.9, 25 °C, trans isomer).
`E-cadherin fragment, fluorescent label (Homo sapiens) (sequence not shown)` has a Kd of 80 nM (CTNNB1 fragment (Homo sapiens); fluorescence polarization; 2 h, pH 7.4).
The Kd of `RFC1/RFC2/RFC3/RFC4/RFC5 Rfc1 284-end (Saccharomyces cerevisiae)` is reported as 7.9 nM and 5.5 nM (POL30 1-258 C22S/C62S/C81S/S43C, MDCC on Cys43 (Saccharomyces cerevisiae, UniProt P15873); fluorescence titration; with: ATP 0.5 mM).
With `{Cy5.5(3)}-TNYLFSPNGPIARAW (peptide; N-terminal Cy5.5; Cy5.5(3) = Cy5.5 fluorescent dye)` the Kd was 1.27 nM (EPHB4 16-539 (Homo sapiens, UniProt P54760); SPR; peptide).
With `B5 (POL30)` the Kd was 4.6 nM (RAD30 (Saccharomyces cerevisiae, UniProt Q04049); single-molecule TIRF; calculated from kon, koff).
With `MPIFLDHILNKFWILHYASG (SPAM peptide; C-terminal propargylglycine, ROX label)` the Kd was 119 ± 33 nM (CD274 ectodomain (Homo sapiens); fluorescence polarisation; peptide; 100 nM).
`ETDKE[pY][pY]TVKD (JAK1 1029-1039; pY1034/pY1035; pY = N[C@@H](Cc1ccc(OP(=O)(O)O)cc1)C(=O)O)` gave a Kd of 500 ± 100 nM (PTPN6 243-530 Q252R/C453S (Homo sapiens, UniProt P29350); ITC; peptide; pH 8.0, 25 °C, NaCl 100 mM).
With `GSGASMPNENSVKEPEIRCDEKPEDLLEEPKTTSEETLEDCSEVTPAM (PRDM2 residues 297-341 (Homo sapiens, UniProt Q13029))` the Kd was 110 nM (RB1 372-581 linked 636-787 (Homo sapiens, UniProt P06400); fluorescence polarisation; competition).
With `NDP fragment (Homo sapiens)` the Kd was 450 nM (LRP6 β-propeller domains 1-2 (Homo sapiens); AlphaScreen or HTRF).
With `{FITC}-GFID[pS]D[pT]DVEEE-NH2 (peptide; N-terminal FITC, pS5, pT7, C-terminal amide; FITC = O=C1OC2(c3ccc(O)cc3Oc3cc(O)ccc32)c2ccc(NC(=S)*)cc21; pS = N[C@@H](COP(=O)(O)O)C(=O)O; pT = C[C@@H](OP(=O)(O)O)[C@H](N)C(=O)O)` the Kd was 15000 ± 1000 nM (TOPBP1 641-746 (Homo sapiens, UniProt Q92547); fluorescence polarisation; peptide; pH 7.5, NaCl 150 mM).
For `B6 (adrenodoxin)`, the Kd was 14 nM (CYP11B2 (Homo sapiens, UniProt P19099); MST; pH 7.4, 25 °C, oxidized, single-site model).

A few entries again:
The Kd of `B2 (CLASP1/GFP 805-1471)` is reported as greater than 10000 nM (PRC1 (Homo sapiens, UniProt O43663); BLI).
`ETDKE[pY][pY]TVKD (JAK1 1029-1039; pY1034/pY1035; pY = N[C@@H](Cc1ccc(OP(=O)(O)O)cc1)C(=O)O)` gave a Kd of 500 ± 100 nM (PTPN6 243-530 Q252R/C453S (Homo sapiens, UniProt P29350); ITC; peptide; pH 8.0, 25 °C, NaCl 100 mM).
With `ATRIP fragment T12A` the Kd was 17000 nM (RPA1 1-120 (Homo sapiens, UniProt P27694); competition with ATRIP probe, fluorescence polarisation; pH 7.5, NaCl 75 mM).
